Published values from different studies.
In brackets after ≈: the same amount, converted by molar mass.
Organism: Pseudomonas aeruginosa

Under “minimal biofilm inhibitory concentration”, `CC(C)C[C@H](NC(=O)[C@@H]1CSCC(=O)N[C@@H](CCCCN)C(=O)N[C@@H](CC(C)C)C(=O)N[C@@H](CC(C)C)C(=O)N[C@H]2CCCCNC(=O)[C@H](CC(C)C)NC(=O)[C@H](CC(C)C)NC(=O)[C@H](CCCCN)NC(=O)CSC[C@H](NC(=O)[C@H](CC(C)C)NC(=O)[C@H](CC(C)C)NC(=O)[C@H](CCCCN)NC2=O)C(=O)N[C@@H](CCCCN)C(=O)N[C@@H](CCCCN)C(=O)N[C@@H](CCCCN)C(=O)N1)C(N)=O` is recorded as 32 µg/mL (PAO1; 24 to 25 h).
`CC[C@H](C)[C@H](NC(=O)[C@H](CCCCN)NC(=O)[C@H](CCCCN)NC(=O)[C@H](CC(C)C)NC(=O)[C@H](CCCCN)NC(=O)[C@H](CCC(=O)O)NC(=O)[C@H](CCCCN)NC(=O)[C@@H](NC(=O)[C@H](CCCCN)NC(=O)[C@H](CC(N)=O)NC(=O)[C@H](CCCNC(=N)N)NC(=O)[C@H](Cc1ccccc1)NC(=O)[C@H](CCCCN)NC(=O)[C@H](CCCNC(=N)N)NC(=O)[C@H](CC(C)C)NC(=O)[C@H](CCCNC(=N)N)NC(=O)[C@H](CCCCN)NC(=O)[C@H](CCCNC(=N)N)NC(=O)[C@H](CC(C)C)NC(=O)[C@@H](N)CC(C)C)[C@@H](C)CC)C(=O)NCC(=O)N[C@@H](CCC(N)=O)C(=O)N[C@@H](CCCCN)C(=O)N[C@H](C(=O)N[C@@H](CCC(N)=O)C(=O)NCC(=O)N[C@@H](Cc1ccccc1)C(=O)N[C@H](C(=O)N1CCC[C@H]1C(=O)N[C@@H](CCCCN)C(=O)N[C@@H](CC(C)C)C(=O)N[C@H](C(=O)N1CCC[C@H]1C(=O)N[C@@H](CCCNC(=N)N)C(=O)N[C@H](C(=O)N[C@@H](CCC(=O)O)C(=O)N[C@@H](CO)C(=O)O)[C@@H](C)O)C(C)C)C(C)C)[C@@H](C)CC` has a lethal concentration of 3.22 µM (inhibition zone method; 14, LB 0.8% agar with 154 mM NaCl; overnight, 37 °C).
For `CCCC(=O)NCC(=O)N[C@@H](CC(C)C)C(=O)N[C@@H](CC(C)C)C(=O)N[C@@H](CCCCN)C(=O)N[C@@H](CCCNC(=N)N)C(=O)N[C@H](C(=O)N[C@@H](CCCCN)C(=O)N[C@H](C(=O)N[C@@H](CC(C)C)C(=O)N[C@@H](CC(C)C)C(=O)NCCCC[C@H](NC(=O)[C@H](CCCCNC(=O)[C@H](CC(C)C)NC(=O)[C@H](CC(C)C)NC(=O)[C@@H](NC(=O)[C@H](CCCCN)NC(=O)[C@@H](NC(=O)[C@H](CCCNC(=N)N)NC(=O)[C@H](CCCCN)NC(=O)[C@H](CC(C)C)NC(=O)[C@H](CC(C)C)NC(=O)CNC(=O)CCC)[C@@H](C)CC)[C@@H](C)O)NC(=O)[C@H](CC(C)C)NC(=O)[C@H](CC(C)C)NC(=O)[C@@H](NC(=O)[C@H](CCCCN)NC(=O)[C@@H](NC(=O)[C@H](CCCNC(=N)N)NC(=O)[C@H](CCCCN)NC(=O)[C@H](CC(C)C)NC(=O)[C@H](CC(C)C)NC(=O)CNC(=O)CCC)[C@@H](C)CC)[C@@H](C)O)C(N)=O)[C@@H](C)O)[C@@H](C)CC`, the FIC index was 0.5 (checkerboard; ATCC 27853; added: rifampicin).
`CC(CCC(=O)[O-])C1CCC2C3C(O)CC4CC(O)CCC4(C)C3CCC12C.C[N+](C)(C)CC(O)CC(=O)O` (stereo not shown) — result for antibacterial activity: “inactive” (TISTR357; 1 mg per disc, 18 to 24 h, 37 °C).
`CC(C)C[C@H](NC(=O)[C@H](CCCCNC(=O)[C@H](CCCCN)NC(=O)[C@H](CC(C)C)NC(=O)[C@H](CCCCNC(=O)[C@H](CCCCN)NC(=O)[C@H](CC(C)C)NC(=O)[C@H](CCCCNC(=O)[C@H](CCCCN)NC(=O)[C@@H](N)CC(C)C)NC(=O)[C@H](CCCCN)NC(=O)[C@@H](N)CC(C)C)NC(=O)[C@H](CCCCN)NC(=O)[C@H](CC(C)C)NC(=O)[C@H](CCCCNC(=O)[C@H](CCCCN)NC(=O)[C@@H](N)CC(C)C)NC(=O)[C@H](CCCCN)NC(=O)[C@@H](N)CC(C)C)NC(=O)[C@H](CCCCN)NC(=O)[C@H](CC(C)C)NC(=O)[C@H](CCCCNC(=O)[C@H](CCCCN)NC(=O)[C@H](CC(C)C)NC(=O)[C@H](CCCCNC(=O)[C@H](CCCCN)NC(=O)[C@@H](N)CC(C)C)NC(=O)[C@H](CCCCN)NC(=O)[C@@H](N)CC(C)C)NC(=O)[C@H](CCCCN)NC(=O)[C@H](CC(C)C)NC(=O)[C@H](CCCCNC(=O)[C@H](CCCCN)NC(=O)[C@@H](N)CC(C)C)NC(=O)[C@H](CCCCN)NC(=O)[C@@H](N)CC(C)C)C(=O)N[C@@H](CCCCN)C(N)=O` gave an MBIC of 6 µM (biofilm formation; PAO1; 24 h).
The lethal concentration of `CC[C@H](C)[C@H](NC(=O)[C@H](CCCCN)NC(=O)[C@H](CCCCN)NC(=O)[C@H](CC(C)C)NC(=O)[C@H](CCCCN)NC(=O)[C@H](CCC(=O)O)NC(=O)[C@H](CCCCN)NC(=O)[C@@H](NC(=O)[C@H](CCCCN)NC(=O)[C@H](CC(N)=O)NC(=O)[C@H](CCCNC(=N)N)NC(=O)[C@H](Cc1ccccc1)NC(=O)[C@H](CCCCN)NC(=O)[C@H](CCCNC(=N)N)NC(=O)[C@H](CC(C)C)NC(=O)[C@H](CCCNC(=N)N)NC(=O)[C@H](CCCCN)NC(=O)[C@H](CCCNC(=N)N)NC(=O)[C@H](CC(C)C)NC(=O)[C@@H](N)CCCNC(=N)N)[C@@H](C)CC)C(=O)NCC(=O)N[C@@H](CCC(N)=O)C(=O)N[C@@H](CCCCN)C(=O)N[C@H](C(=O)N[C@@H](CCC(N)=O)C(=O)NCC(=O)N[C@@H](Cc1ccccc1)C(=O)N[C@H](C(=O)N1CCC[C@H]1C(=O)N[C@@H](CCCCN)C(=O)N[C@@H](CC(C)C)C(=O)N[C@@H](CCC(N)=O)C(=O)N1CCC[C@H]1C(=O)N[C@@H](CO)C(=O)N[C@@H](CCCCN)C(=O)N[C@@H](CCC(N)=O)C(=O)N[C@@H](CO)C(=O)O)C(C)C)[C@@H](C)CC` is reported as 3 µM (inhibition zone; O1; LB agar, overnight).
With `C[C@@](O)(C(F)F)[C@H](NC(=O)c1ccc(C#CC#CC2CC2)cc1)C(=O)NO` the MIC90 was 1 µg/mL (≈ 2.66 µM) (agar dilution; MDR/XDR clinical isolates).
With `CC(CCCOC(=O)CCC[N+](C)(C)C)C1CCC2C3CCC4CC(OC(=O)CCC[N+](C)(C)C)CCC4(C)C3CC(OC(=O)CCC[N+](C)(C)C)C12C` (stereo not shown) the selectivity index was over 4 (ATCC 27853; relative to: HC50 over MIC).
`ONCC1CCCCC1` gave a biofilm reduction of over 50% (CLSM COMSTAT, refers to: biomass and average thickness; continuous-flow biofilm; concentration not given).
The bacterial load of `C[C@@H](c1ccccc1)N(CC(N)=O)C(=O)CN(C(=O)CN(CCCCN)C(=O)CN(C(=O)CN(C(=O)CN(CCCCN)C(=O)CN(C(=O)CN(C(=O)CN(CCCCN)C(=O)CN(C(=O)CN(C(=O)CNCCCCN)[C@@H](C)c1ccccc1)[C@@H](C)c1ccccc1)[C@@H](C)c1ccccc1)[C@@H](C)c1ccccc1)[C@@H](C)c1ccccc1)[C@@H](C)c1ccccc1)[C@@H](C)c1ccccc1` is reported as 8.2e+07 CFU/mL (LESB58, mouse, abscess model; maximum tolerated dose, day three).

For quick reference, copied from above:
For `CCCC(=O)NCC(=O)N[C@@H](CC(C)C)C(=O)N[C@@H](CC(C)C)C(=O)N[C@@H](CCCCN)C(=O)N[C@@H](CCCNC(=N)N)C(=O)N[C@H](C(=O)N[C@@H](CCCCN)C(=O)N[C@H](C(=O)N[C@@H](CC(C)C)C(=O)N[C@@H](CC(C)C)C(=O)NCCCC[C@H](NC(=O)[C@H](CCCCNC(=O)[C@H](CC(C)C)NC(=O)[C@H](CC(C)C)NC(=O)[C@@H](NC(=O)[C@H](CCCCN)NC(=O)[C@@H](NC(=O)[C@H](CCCNC(=N)N)NC(=O)[C@H](CCCCN)NC(=O)[C@H](CC(C)C)NC(=O)[C@H](CC(C)C)NC(=O)CNC(=O)CCC)[C@@H](C)CC)[C@@H](C)O)NC(=O)[C@H](CC(C)C)NC(=O)[C@H](CC(C)C)NC(=O)[C@@H](NC(=O)[C@H](CCCCN)NC(=O)[C@@H](NC(=O)[C@H](CCCNC(=N)N)NC(=O)[C@H](CCCCN)NC(=O)[C@H](CC(C)C)NC(=O)[C@H](CC(C)C)NC(=O)CNC(=O)CCC)[C@@H](C)CC)[C@@H](C)O)C(N)=O)[C@@H](C)O)[C@@H](C)CC`, the FIC index was 0.5 (checkerboard; ATCC 27853; added: rifampicin).
